Experimental data collected from several papers.
Several values in a cell are separate wells, animals, samples, runs or records. ± marks the error that the study gave. ≈ marks a conversion by molar mass, not a printed value.

| SMILES | tested on | assay | system | setting | how to read | quantity | result |
| --- | --- | --- | --- | --- | --- | --- | --- |
| CC/C(=N\NC(=O)NCc1cccc(O)c1)c1ccc(O)c(C)c1O | SK-OV-3 | Western blot, item: YAP |  | 10 µM, 3 h, 3D gellan gum culture, unit not given | relative to: β-actin | protein level | 0.98 ± 0.11 |
| N#Cc1ccc2c(-c3ccncc3)c(-c3ccc(F)cc3)nn2c1 | orf19.6492 kinase Candida albicans | MIB/MS competition binding | Candida albicans cell lysate | 1 µM | relative to: DMSO, lower = stronger binding | log2 fold change | -0.0685 |
| Oc1ccccc1-c1n[nH]cc1-c1ccnc2ccccc12 | orf19.3456 Candida albicans | kinase binding, MIB/MS competition | Candida albicans lysate | 1 µM | relative to: DMSO | log2 fold change | 0.11 |
| CC(=O)NC[C@H]1CN(c2ccc(N3CCOCC3)c(F)c2)C(=O)O1 | Streptococcus agalactiae |  | 25 clinical isolates |  |  | MIC50 | 0.5 µg/mL (≈ 1.48 µM) |
| c1coc(-c2n[nH]cc2-c2ccnc3ccccc23)c1 | CKA2 (Candida albicans) | kinase binding, MIB/MS competition | Candida albicans lysate | 1 µM | relative to: DMSO | log2 fold change | -0.28 |
| Cc1n[nH]c2ccc(-c3cc(OC[C@@H](N)Cc4ccccc4)cnc3-c3ccoc3)cc12 | orf19.4144 kinase Candida albicans | MIB/MS competition binding | Candida albicans cell lysate | 10 µM | relative to: DMSO, lower = stronger binding | log2 fold change | -2.63 |
| CN[C@H](CC(C)C)C(=O)N[C@H]1C(=O)N[C@@H](CC(N)=O)C(=O)N[C@H]2C(=O)N[C@H]3C(=O)N[C@H](C(=O)N[C@H](C(=O)O)c4cc(O)cc(O)c4-c4cc3ccc4O)[C@H](O)c3ccc(c(Cl)c3)Oc3cc2cc(c3O[C@@H]2O[C@H](CO)[C@@H](O)[C@H](O)[C@H]2O[C@H]2C[C@](C)(N)[C@H](O)[C@H](C)O2)Oc2ccc(cc2Cl)[C@H]1O | Enterococcus faecium |  | -9, compound-intermediate, mouse systemic infection | intravenous | survival | ED50 | 23.9 mg/kg |
| N#Cc1ccn2c(-c3ccncc3)c(-c3ccc(F)cc3)nc2c1 | orf19.4518 kinase Candida albicans | MIB/MS competition binding | Candida albicans cell lysate | 1 µM | relative to: DMSO, lower = stronger binding | log2 fold change | 0.11 |
| C[C@H](Oc1ccc(Br)cc1-c1ccon1)C(=O)O |  | response peak | human, tibialis anterior muscle | 100 mg, 30 Hz+30 s |  | difference from placebo | 7.75% |
| NC(=O)c1cnc2[nH]ccc2c1N[C@@H]1[C@@H]2CC3C[C@H]1C[C@@](O)(C3)C2 |  | regulatory T cells, flow cytometry | Japanese humans, peripheral blood | 20 mg single dose | relative to: baseline | percent change | 0.57% |
| Cn1cc(-c2ccc(-c3cncc(Cl)c3N3CCC4(CCNC4=O)CC3)cc2)cn1 | COLO 205 | microarray, item: EDN1 |  | concentration not given, 6 h, gene set Endothelin-1 | relative to: untreated cells | fold change in expression | 1.53 |
| O=C(/C=C/C=C/C=C/C1CCCCC1)NC1=C[C@@](O)(/C=C/C=C/C=C/C(=O)NC2=C(O)CCC2=O)[C@@H]2O[C@@H]2C1=O | COV318 | cell growth, CellTiter-Glo |  | 78 h |  | GI50 | 16000 nM |
| O=C(N1CCc2ccccc21)n1ccnn1 | Arabidopsis thaliana |  | wild type, seedlings | 1 µM, continuous red light, with: 0.3 µM karrikin KAR2 |  | hypocotyl length | 13.2 mm |
| CC(C)NCC(O)c1ccc(O)c(O)c1 (stereo not shown) |  |  | ventricular cardiomyocytes, C57BL/6 mouse | dose not given, 0.388 s |  | sarcomere length | 1.72 µm |
| CN(C)C(=O)c1cc2cnc(Nc3ccc(N4CCNCC4)cn3)nc2n1C1CCCC1 |  | RNA-seq GSEA, item: HALLMARK_BILE_ACID_METABOLISM gene set | MB002 tumour | concentration not given | relative to: vehicle, direction not given | enrichment score | 0.255 |
| C=C[C@]1(C)C[C@@H](OC(=O)CSCCN(CC)CC)[C@]2(C)[C@H](C)CC[C@]3(CCC(=O)[C@H]32)[C@@H](C)[C@@H]1O | Mycoplasma gallisepticum |  | infected chickens | oral, 40 mg/kg, score scale 0 to 4 | direction not given | air sac lesion score | 2 |
| CC(C)n1ncc2c(C(=O)NCC3(C)CNC3)cc(C3CC3)nc21 | coxsackievirus B3 | CPE | Vero | 15 µM |  | cell protection | 97% and 103% |
| O=C(O)CNC(=O)Cc1ccccc1 |  |  | ventricular cardiomyocytes, C57BL/6 mouse | dose not given, 0.4 s |  | sarcomere length | 1.72 µm |
| COc1cnc2cccc(N3CCc4c(cc(Cn5ccnc5C)cc4-c4cn(C)nc4C(F)(F)F)C3=O)c2c1 | SW837 | cell growth, inhibitor |  | 120 h |  | EC50 | 75.6 nM |
| COc1cc(C(=O)NS(=O)(=O)c2ccccc2C)ccc1Cc1cn(C)c2ccc(NC(=O)OC3CCCC3)cc12 | native VRAC | ion current, inhibitor, whole-cell patch clamp | wild-type HCT cells | 1 µM, pH 6.0, extracellular pH |  | inhibition | 17.9% and 1.82% and 30.3% and 4.83% and 16.4% |
| c1ccc(-c2n[nH]cc2-c2ccnc3ccccc23)nc1 | orf19.4144 kinase Candida albicans | MIB/MS competition binding | Candida albicans cell lysate | 1 µM | relative to: DMSO, lower = stronger binding | log2 fold change | 1.33 |
| CCn1cc(-c2cc(Cn3ccnc3)cc3c2CCN([C@H](c2cc(OC)ccn2)C2CC2)C3=O)c(C(F)(F)F)n1 | MINO | cell growth, inhibitor |  | 120 h |  | EC50 | 2700 nM |

For quick reference, copied from above:
| SMILES | tested on | assay | system | setting | how to read | quantity | result |
| --- | --- | --- | --- | --- | --- | --- | --- |
| O=C(/C=C/C=C/C=C/C1CCCCC1)NC1=C[C@@](O)(/C=C/C=C/C=C/C(=O)NC2=C(O)CCC2=O)[C@@H]2O[C@@H]2C1=O | COV318 | cell growth, CellTiter-Glo |  | 78 h |  | GI50 | 16000 nM |
| NC(=O)c1cnc2[nH]ccc2c1N[C@@H]1[C@@H]2CC3C[C@H]1C[C@@](O)(C3)C2 |  | regulatory T cells, flow cytometry | Japanese humans, peripheral blood | 20 mg single dose | relative to: baseline | percent change | 0.57% |
